Experimental data pooled from the literature.
Values joined by “and” are separate records of one study, mostly repeats; a detail may differ. ± gives the spread as reported.
DDR1: Epithelial discoidin domain-containing receptor 1 (DDR1, Homo sapiens, UniProt Q08345)
UniProt Q08345, sequence (whole entry, looked up): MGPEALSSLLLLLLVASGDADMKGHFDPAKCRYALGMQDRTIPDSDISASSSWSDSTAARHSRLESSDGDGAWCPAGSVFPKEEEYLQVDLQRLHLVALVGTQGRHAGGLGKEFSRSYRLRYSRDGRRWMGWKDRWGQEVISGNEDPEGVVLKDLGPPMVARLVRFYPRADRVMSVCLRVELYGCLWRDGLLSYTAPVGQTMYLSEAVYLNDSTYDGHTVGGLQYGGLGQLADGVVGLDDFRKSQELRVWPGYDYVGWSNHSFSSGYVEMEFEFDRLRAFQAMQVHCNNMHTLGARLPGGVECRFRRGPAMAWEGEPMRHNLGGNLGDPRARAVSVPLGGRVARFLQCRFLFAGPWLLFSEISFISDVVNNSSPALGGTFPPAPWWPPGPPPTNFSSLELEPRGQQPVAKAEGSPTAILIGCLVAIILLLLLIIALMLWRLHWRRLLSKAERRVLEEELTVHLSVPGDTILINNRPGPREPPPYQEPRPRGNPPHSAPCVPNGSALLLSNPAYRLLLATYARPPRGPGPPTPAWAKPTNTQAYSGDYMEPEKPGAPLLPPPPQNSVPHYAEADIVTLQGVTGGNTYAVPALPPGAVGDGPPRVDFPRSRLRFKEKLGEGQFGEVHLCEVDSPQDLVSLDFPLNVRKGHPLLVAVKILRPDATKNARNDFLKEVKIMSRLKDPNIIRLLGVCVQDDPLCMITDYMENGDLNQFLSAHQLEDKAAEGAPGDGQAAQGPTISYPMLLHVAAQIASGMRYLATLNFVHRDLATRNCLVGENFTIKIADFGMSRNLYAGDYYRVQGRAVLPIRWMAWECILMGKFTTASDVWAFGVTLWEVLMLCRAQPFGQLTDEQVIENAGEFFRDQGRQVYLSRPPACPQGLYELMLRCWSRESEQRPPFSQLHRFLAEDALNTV
FGFR1: Fibroblast growth factor receptor 1 (FGFR1, Homo sapiens, UniProt P11362)
UniProt P11362, sequence (whole entry, looked up): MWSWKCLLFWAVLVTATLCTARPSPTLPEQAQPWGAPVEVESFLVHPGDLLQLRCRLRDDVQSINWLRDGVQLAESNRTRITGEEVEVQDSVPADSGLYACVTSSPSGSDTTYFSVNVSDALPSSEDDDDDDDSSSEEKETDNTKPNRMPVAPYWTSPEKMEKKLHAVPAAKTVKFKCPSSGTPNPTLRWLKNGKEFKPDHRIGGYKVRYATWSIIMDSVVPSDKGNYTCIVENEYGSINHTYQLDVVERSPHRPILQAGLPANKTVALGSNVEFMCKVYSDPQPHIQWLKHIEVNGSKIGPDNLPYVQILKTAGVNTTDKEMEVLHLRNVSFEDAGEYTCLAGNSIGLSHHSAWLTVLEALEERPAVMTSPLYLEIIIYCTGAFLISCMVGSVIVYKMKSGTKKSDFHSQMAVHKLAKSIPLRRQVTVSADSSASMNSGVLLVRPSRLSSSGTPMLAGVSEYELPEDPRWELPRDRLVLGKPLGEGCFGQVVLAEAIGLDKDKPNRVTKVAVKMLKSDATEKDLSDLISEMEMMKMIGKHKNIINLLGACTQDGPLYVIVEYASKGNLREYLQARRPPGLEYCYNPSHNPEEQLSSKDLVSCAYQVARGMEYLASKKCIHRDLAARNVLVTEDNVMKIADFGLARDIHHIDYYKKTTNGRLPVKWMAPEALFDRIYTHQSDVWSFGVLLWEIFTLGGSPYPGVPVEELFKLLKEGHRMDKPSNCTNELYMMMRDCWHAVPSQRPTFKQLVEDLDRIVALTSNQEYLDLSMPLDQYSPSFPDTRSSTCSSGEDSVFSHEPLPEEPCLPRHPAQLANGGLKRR
P4HB: Protein disulfide-isomerase (P4HB, Homo sapiens, UniProt P07237)
UniProt P07237, sequence (whole entry, looked up): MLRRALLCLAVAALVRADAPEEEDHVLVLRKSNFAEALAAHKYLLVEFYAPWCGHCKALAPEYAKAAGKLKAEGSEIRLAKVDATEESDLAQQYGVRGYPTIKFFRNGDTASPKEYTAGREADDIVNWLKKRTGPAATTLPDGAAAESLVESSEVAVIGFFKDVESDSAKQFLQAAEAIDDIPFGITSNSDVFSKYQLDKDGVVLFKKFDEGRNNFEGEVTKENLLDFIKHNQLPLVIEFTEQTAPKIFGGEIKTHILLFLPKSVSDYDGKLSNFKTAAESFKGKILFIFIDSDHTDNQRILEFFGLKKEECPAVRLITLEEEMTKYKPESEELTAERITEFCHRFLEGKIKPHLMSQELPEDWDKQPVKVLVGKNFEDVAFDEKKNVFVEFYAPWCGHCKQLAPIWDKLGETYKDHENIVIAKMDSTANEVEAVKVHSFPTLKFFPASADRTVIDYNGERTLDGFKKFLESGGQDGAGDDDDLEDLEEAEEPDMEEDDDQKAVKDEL
TMPRSS2: Transmembrane protease serine 2 (TMPRSS2, Homo sapiens, UniProt O15393)
UniProt O15393, sequence (whole entry, looked up): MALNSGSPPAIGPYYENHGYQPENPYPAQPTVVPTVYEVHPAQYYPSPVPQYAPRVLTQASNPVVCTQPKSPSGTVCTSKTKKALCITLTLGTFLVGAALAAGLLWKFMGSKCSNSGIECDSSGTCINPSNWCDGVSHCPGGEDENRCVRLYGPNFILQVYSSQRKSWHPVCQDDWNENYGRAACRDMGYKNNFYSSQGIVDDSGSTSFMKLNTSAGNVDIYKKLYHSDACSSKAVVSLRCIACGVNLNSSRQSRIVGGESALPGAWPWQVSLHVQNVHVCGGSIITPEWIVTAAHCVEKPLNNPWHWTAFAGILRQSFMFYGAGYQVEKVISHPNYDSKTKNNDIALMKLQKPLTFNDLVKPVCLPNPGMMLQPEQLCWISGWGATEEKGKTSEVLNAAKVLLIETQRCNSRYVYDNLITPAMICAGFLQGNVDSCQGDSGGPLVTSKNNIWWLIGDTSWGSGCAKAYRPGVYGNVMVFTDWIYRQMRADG
Grm5: Metabotropic glutamate receptor 5 (Grm5, Rattus norvegicus, UniProt P31424)
UniProt P31424, sequence (whole entry, looked up): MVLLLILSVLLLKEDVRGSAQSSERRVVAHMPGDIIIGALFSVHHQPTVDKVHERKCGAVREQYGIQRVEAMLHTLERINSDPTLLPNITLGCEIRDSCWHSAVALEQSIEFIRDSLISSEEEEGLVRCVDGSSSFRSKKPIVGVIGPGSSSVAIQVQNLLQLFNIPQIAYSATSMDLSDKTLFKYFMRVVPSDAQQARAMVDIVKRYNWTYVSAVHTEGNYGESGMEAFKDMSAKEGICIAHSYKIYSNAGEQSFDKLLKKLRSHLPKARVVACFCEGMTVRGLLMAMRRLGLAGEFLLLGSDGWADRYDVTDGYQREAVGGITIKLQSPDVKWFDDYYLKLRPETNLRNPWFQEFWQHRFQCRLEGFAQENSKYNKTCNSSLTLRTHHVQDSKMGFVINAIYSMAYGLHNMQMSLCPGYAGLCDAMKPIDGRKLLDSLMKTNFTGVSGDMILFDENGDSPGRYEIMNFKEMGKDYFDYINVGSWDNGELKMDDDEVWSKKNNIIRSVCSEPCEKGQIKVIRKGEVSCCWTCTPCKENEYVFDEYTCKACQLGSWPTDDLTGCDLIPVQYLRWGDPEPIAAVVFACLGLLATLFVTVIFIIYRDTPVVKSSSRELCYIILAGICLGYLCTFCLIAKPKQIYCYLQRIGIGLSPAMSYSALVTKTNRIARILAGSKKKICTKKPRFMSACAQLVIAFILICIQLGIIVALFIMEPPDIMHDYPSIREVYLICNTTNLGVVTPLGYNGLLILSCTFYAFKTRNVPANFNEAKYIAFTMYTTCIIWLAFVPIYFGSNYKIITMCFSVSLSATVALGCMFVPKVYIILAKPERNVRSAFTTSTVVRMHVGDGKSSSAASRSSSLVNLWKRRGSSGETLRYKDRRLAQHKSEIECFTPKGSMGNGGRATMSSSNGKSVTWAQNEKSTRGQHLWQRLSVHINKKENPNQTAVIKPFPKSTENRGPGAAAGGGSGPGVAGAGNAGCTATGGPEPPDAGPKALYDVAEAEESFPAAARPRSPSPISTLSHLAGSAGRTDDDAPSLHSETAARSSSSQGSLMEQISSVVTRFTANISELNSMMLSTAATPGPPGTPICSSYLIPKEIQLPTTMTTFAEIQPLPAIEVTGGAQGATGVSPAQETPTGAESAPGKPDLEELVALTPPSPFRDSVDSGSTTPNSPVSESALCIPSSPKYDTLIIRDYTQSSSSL
UniProt Q99496, sequence (whole entry, looked up): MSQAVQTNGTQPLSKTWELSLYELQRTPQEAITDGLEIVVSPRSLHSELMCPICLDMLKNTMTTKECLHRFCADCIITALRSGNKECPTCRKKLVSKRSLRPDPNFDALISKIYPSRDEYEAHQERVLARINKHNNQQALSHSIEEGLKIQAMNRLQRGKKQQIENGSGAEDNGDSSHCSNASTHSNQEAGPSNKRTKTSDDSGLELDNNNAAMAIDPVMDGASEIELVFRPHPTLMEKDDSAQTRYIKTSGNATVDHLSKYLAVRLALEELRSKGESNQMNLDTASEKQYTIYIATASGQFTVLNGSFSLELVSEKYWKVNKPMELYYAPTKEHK
UniProt P47871, sequence (whole entry, looked up): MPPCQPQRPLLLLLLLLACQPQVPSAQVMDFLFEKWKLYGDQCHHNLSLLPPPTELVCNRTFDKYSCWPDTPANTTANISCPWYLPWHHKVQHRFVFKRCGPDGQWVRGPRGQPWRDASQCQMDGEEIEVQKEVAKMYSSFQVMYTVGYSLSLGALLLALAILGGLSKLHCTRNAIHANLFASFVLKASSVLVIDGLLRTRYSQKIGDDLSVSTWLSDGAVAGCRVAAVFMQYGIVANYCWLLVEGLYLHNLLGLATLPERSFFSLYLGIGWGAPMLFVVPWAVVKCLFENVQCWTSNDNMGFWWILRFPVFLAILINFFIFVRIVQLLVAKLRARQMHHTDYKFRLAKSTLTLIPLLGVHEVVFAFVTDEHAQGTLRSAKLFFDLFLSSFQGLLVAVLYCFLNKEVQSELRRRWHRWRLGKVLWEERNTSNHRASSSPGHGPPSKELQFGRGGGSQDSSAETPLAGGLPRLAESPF
UniProt Q9GZX7, sequence (whole entry, looked up): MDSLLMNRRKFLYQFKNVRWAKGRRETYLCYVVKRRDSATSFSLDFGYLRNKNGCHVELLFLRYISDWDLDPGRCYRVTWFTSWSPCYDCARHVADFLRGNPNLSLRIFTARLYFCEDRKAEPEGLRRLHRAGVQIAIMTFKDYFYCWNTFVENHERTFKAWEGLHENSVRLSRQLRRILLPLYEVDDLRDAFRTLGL

N[C@@H](CCC(=O)N[C@@H](CS[Se]Cc1ccc(-c2cccc(C(O)c3ccc(Cl)c(Cl)c3)c2)cc1)C(=O)NCC(=O)O)C(=O)O (stereo partly shown)
IC50 (Receptor-type tyrosine-protein phosphatase F (Homo sapiens, UniProt P10586); enzyme activity, inhibitor; with: pNPP, GSH 1 mM): 68 ± 19 µM

CNC(=O)C(Cc1c[nH]c2ncccc12)NC(=O)C(OC)c1ccc(Oc2ccccc2)cc1 (stereo not shown)
IC50 (DDR1; cell-free assay): 1.4 µM

Cc1ccc2oc(-c3c4c(N)n[nH]c(=O)c4nn3-c3ccc(NC(=O)/C=C/CN(C)C)cc3)c(C)c2c1
IC50 (EPHA2 (Homo sapiens, UniProt P29317); enzyme activity, inhibitor, ELISA): > 1 µM

COc1cc(N2CCN(C)CC2)ccc1Nc1ncc2c(n1)N(C)c1ccc(C)cc1C(=O)N2CC(F)(F)F
IC50 (DCLK2 (Homo sapiens, UniProt Q8N568); enzyme activity, inhibitor, radiometric): > 10 µM

O=c1c(OCc2ccccc2)c(-c2ccc([N+](=O)[O-])cc2)oc2ccccc12
IC50 (β-glucosidase; enzyme activity, inhibitor): 0.37 ± 0.13 µM

CC(=O)NC(c1ccccc1)(c1ccccc1)c1ccccc1Cl
IC50 (Gap junction alpha-8 protein (Gja8, Mus musculus, UniProt P28236); gap junction channel current, inhibitor, dual whole-cell voltage clamp; N2a transfected with Cx50): no effect

O=C(Nc1ccc(C(=O)Nc2ccc(C(=O)Nc3ccc(S(=O)(=O)O)c4cc(S(=O)(=O)O)cc(S(=O)(=O)O)c34)cc2)cc1)Nc1ccc(C(=O)Nc2ccc(C(=O)Nc3ccc(S(=O)(=O)O)c4cc(S(=O)(=O)O)cc(S(=O)(=O)O)c34)cc2)cc1
IC50 (Plasminogen (PLG, Homo sapiens, UniProt P00747); enzyme activity, inhibitor, absorbance; pH 7.4): > 180 µM

O=C(Nc1cc(Cl)cc(Cl)c1)Nc1cccc(NCc2cccnc2)c1
IC50 (DDR1; enzyme activity, inhibitor, mobility shift): 1.24 µM

CC(C)NCCCNC(=O)c1cccc(Br)c1
IC50 (Lethal(3)malignant brain tumor-like protein 3 (Homo sapiens, UniProt Q96JM7); methyl-lysine reader binding, inhibitor, AlphaScreen): > 100 µM

[N-]=[N+]=N[C@H]1C[C@H](n2cnc3c(N)ncnc32)O[C@@H]1COP(=O)(O)OP(=O)(O)OP(=O)(O)O
IC50 (TERT (Homo sapiens, UniProt O14746); enzyme activity, inhibitor, stretch PCR; with: competing dNTP 10 µM): 40 µM

CN(C)C/C=C/C(=O)Nc1ccc2nc(NCCCCCN(C)C)nc(NCCCCCCN(C)C)c2c1
IC50 (Chromodomain Y-like protein 2, chromodomain (CDYL2, Homo sapiens, UniProt Q8N8U2); methyl-lysine binding, TR-FRET): > 100 µM

CC(C)C[C@H](NC(=O)CNC(=O)[C@H](Cc1ccccc1)NC(=O)[C@H](CO)NC(=O)[C@H](CC(N)=O)NC(=O)[C@H](Cc1c[nH]c2ccccc12)NC(=O)[C@H](CC(N)=O)NC(=O)[C@@H](N)Cc1ccc(O)cc1)C(=O)N[C@@H](CCCNC(=N)N)C(=O)N[C@@H](C)C(N)=O
IC50 (KiSS-1 receptor (KISS1R, Homo sapiens, UniProt Q969F8); ligand displacement, radioligand; cell membranes): > 0.2 µM

COc1cc2nccc(Oc3ccc(NC(=S)N[C@H](C)CO)c(Cl)c3)c2cc1C(N)=O
IC50 (FGFR1): 0.416 µM

CCCCCCc1ccc(S(=O)(=O)N2CC2C(=O)OC)cc1 (stereo not shown)
IC50 (P4HB; enzyme activity, inhibitor, absorbance; pH 7.6): 0.064 µM

CN(C)CC[C@H](CSc1ccccc1)Nc1ccc(S(=O)(=O)NC(=O)c2ccc3c(c2)CC[C@@H]2CN(Cc4ccccc4-c4ccc(Cl)cc4)CCN32)cc1[N+](=O)[O-]
IC50 (BCL2L1 (Homo sapiens, UniProt Q07817); ligand displacement, FP): 0.14 µM

Cc1cc2c(NC(=O)N[C@@H]3CC(C)(C)Oc4cc(C(F)(F)F)ccc43)c(C)ccc2cn1
IC50 (Trpv1 (Rattus norvegicus, UniProt O35433); acid-evoked calcium influx, antagonist; HEK293, rat; pH 5): 0.0727 ± 0.008 µM

Cc1ccc(CNC(=O)[C@@H](NC(=O)[C@H](CCc2ccccc2)NC(=O)[C@H](CCc2ccccc2)N(C)C)C(C)C)cc1
IC50 (20S proteasome (Plasmodium falciparum, UniProt A0A5K1K7U1+Q8IJT1); β5 activity, inhibitor; with: Suc-LLVY-AMC, PA28α-activated): 0.0671 µM

C#Cc1ccc2c(=O)[nH]nc(Cc3ccc(F)c(C(=O)N4CCN(C(=O)C=C)CC4)c3)c2c1
IC50 (Protein mono-ADP-ribosyltransferase PARP16, transmembrane domain deleted (PARP16, Homo sapiens, UniProt Q8N5Y8); auto-MARylation, inhibitor; preincubated 30 min, with: NAD+ 400 µM): 0.275 µM

O=C(O)[C@@H]1Cc2c([nH]c3ccccc23)[C@@H](c2ccc(C(F)(F)F)cc2C(F)(F)F)N1
IC50 (MEP cytidylyltransferase IspD (Plasmodium falciparum, UniProt Q8I273); enzyme activity, inhibitor, fluorimetric pyrophosphate; 60 nM enzyme): > 5 µM

CC(=O)NCCO[C@H]1[C@H](O)[C@@H](O)[C@@H]2O[C@@H]2[C@@H]1C(=O)O
IC50 (Heparanase (HPSE, Homo sapiens, UniProt Q9Y251); enzyme activity, inhibitor; pH 5, with preincubation): 5 µM

O=C(CCCCCCN(Cc1ccc2c(c1)OCO2)Cc1ccc2c(c1)OCO2)NO
IC50 (HDAC3 (Homo sapiens, UniProt O15379); enzyme activity, inhibitor, fluorescence): 0.76 µM

NCc1cccc(C2CCN(C(=O)c3cccc(NC(=O)C(=O)C4(O)CCC4)c3)CC2)c1
IC50 (Tryptase beta-1 (Homo sapiens, UniProt Q15661); enzyme activity, inhibitor; tryptase 10 pM, with: AMC substrate): 0.0104 µM

CCOC(=O)N1CCN(C(=O)[C@H](Cc2cccc(C(=N)N)c2)NS(=O)(=O)c2c(C(C)C)cc(C(C)C)cc2C(C)C)CC1
IC50 (TMPRSS2; enzyme activity, inhibitor, fluorescence): 2.2 µM

CCCN(c1ccc(C(=O)NCCC(=O)O)cc1)S(=O)(=O)c1cc(C)c(-c2ccc(C(C)(C)C)cc2)c(C)c1
IC50 (Glucagon receptor (GCGR, Homo sapiens, UniProt P47871); cAMP, antagonist): 8.4 µM

C=CC(=O)N1CCCCC1C(=O)O (stereo not shown)
IC50 (Protein FosB, ΔFosB isoform (Fosb, Mus musculus, UniProt P13346); ΔFOSB homodimer DNA binding, fluorescence polarization; 15 min, with: TMR-cdk5 oligonucleotide): 96.8 ± 7.2 µM

COc1cc2nccc(Oc3ccc(NC(=S)NCCN(C)C)c(Cl)c3)c2cc1C(N)=O
IC50 (FGFR1): 6.76 µM

CN(C)C(=O)C1CN1S(=O)(=O)c1ccc(N(C)C)c2ccccc12 (stereo not shown)
IC50 (P4HB; enzyme activity, inhibitor, absorbance; pH 7.6): 0.75 µM

Cc1cccc2c1N(C(=O)CSc1ccc(C(F)(F)F)cn1)CCC2
IC50 (TRPV3 (Homo sapiens, UniProt Q8NET8); calcium flux, inhibitor; HEK293 overexpressing target; 30 min preincubation, with: carvacrol 300 µM): 3 µM

O=C(CCCCCCC(=O)NO)NO
IC50 (HDAC (Lucilia cuprina egg nuclear extract); enzyme activity, inhibitor, fluorometric): 9.9 µM

COCCOCCN1CCc2c(Cc3ccc(Cl)cc3)[nH]c3c(OC)ccc(c23)C1=O
IC50 (PDE5A (Homo sapiens, UniProt O76074); enzyme activity, inhibitor): 0.039 µM

COc1ccc(S(=O)(=O)Nc2nc(-c3cccc([N+](=O)[O-])c3)cs2)cc1OC
IC50 (KMO (Homo sapiens, UniProt O15229); enzyme activity, inhibitor, absorbance): 4.96 µM

O=C(O)c1ccc(C=C2SC(=S)N(c3cccc(C(F)(F)F)c3)C2=O)cc1
IC50 (CFTR (Homo sapiens, UniProt P13569); ion current, inhibitor, patch clamp): 1.16 µM

CC(C)(C)c1ccc(O)c(C(=O)Nc2ccc(CN)cc2)c1
IC50 (TMPRSS2; enzyme activity, inhibitor, fluorescence; with preincubation): 13 µM and 13.1 µM

COC(=O)[C@H]1C[C@H](OCCCl)[C@@H](O[C@H]2O[C@H](CO)[C@@H](O)[C@H](O)[C@@H]2n2cc(-c3cccnc3)nn2)C[C@@H]1C(=O)OC
IC50 (CD209 antigen (CD209, Homo sapiens, UniProt Q9NNX6); cell-free assay, SPR): 609 µM

CN(C)C(=O)c1ccc(C[S+]([O-])CC(=O)C23CC4CC(CC(C4)C2)C3)o1 (stereo not shown)
IC50 (HSD11B1 (Homo sapiens, UniProt P28845); enzyme activity in cells, inhibitor): 0.144 µM

COc1cccc(-c2nc(Nc3nc4ccccc4o3)ncc2C#N)c1
IC50 (Grm5; calcium signal, antagonist): 0.266 µM

CC(C)c1c(-c2cccc3[nH]ccc23)[nH]c(C(=O)O)c1-c1c(Cl)ccc2[nH]ccc12
IC50 (E3 ubiquitin-protein ligase RING2 (RNF2, Homo sapiens, UniProt Q99496); NanoBiT luminescence; HEK-293T; 24 h): ~6 µM and 6 µM

O=C(NCCCN1CCC(Cc2ccccc2)CC1)c1ccc(-c2ccccc2)cc1
IC50 (SLC6A4 (Homo sapiens, UniProt P31645); transporter uptake): 0.04 to 0.07 µM

COc1ccc2ccc(C(=O)Nc3ccc(CN)cc3)c(O)c2c1
IC50 (TMPRSS2; enzyme activity, inhibitor, fluorescence; with preincubation): 20.6 µM

CCc1cccc2c(C(=O)COC(=O)C34CC5CC(CC(Br)(C5)C3)C4)c[nH]c12
IC50 (D14 (Arabidopsis thaliana, UniProt Q9SQR3); enzyme activity, inhibitor, mass spectrometry): 2.2 µM

c1ccc(-c2cc3ccccc3o/c2=N\c2ccc3c(c2)OCO3)cc1
IC50 (PTGS2 (Homo sapiens, UniProt P35354); enzyme activity, inhibitor): 0.014 µM

COCCNC(=O)c1cc2c(Oc3ccc(NC(=S)NC4CC4)c(Cl)c3)ccnc2cc1OC
IC50 (FGFR1): 4.24 µM

CCCN(CC(=O)N(CCC)CC(=O)N(CCC)CC(=O)N(CCC)CC(=O)N(CCC)CC(=O)N(CCC)CC(=O)N(CCC)CC(=O)N(CCC)CC(=O)N(CCC)CC(=O)N(CCC)CC(=O)N(CCC)CC(=O)N(CCC)CC(=O)N(CC(N)=O)Cc1cn(CCCNC(=O)CCCOc2cccc(-c3nc4ccc(-c5nc6ccc(N7CCN(C)CC7)cc6[nH]5)cc4[nH]3)c2)nn1)C(=O)CNCc1cn(CCCNC(=O)CCCOc2cccc(-c3nc4ccc(-c5nc6ccc(N7CCN(C)CC7)cc6[nH]5)cc4[nH]3)c2)nn1
IC50 (MBNL1–r(CUG)109 complex; MBNL1 displacement; with: bulk yeast tRNA competitor): > 30 µM

COc1cc(/C=C/c2cc(/C=C/c3ccc(O)c(OC)c3)n(-c3ccc([N+](=O)[O-])cc3[N+](=O)[O-])n2)ccc1O
IC50 (Sterol carrier protein 2 (Helicoverpa armigera, UniProt K7NSY9); displacement of 1,8-ANS, fluorescence; pH 7.0, 25 °C, with: 1,8-ANS 15 µM): 9.64 µM

CC(C)(C)c1ccc(CC(=NO)C(=O)NCCSSc2ccccc2)cc1
IC50 (DOT1L (Homo sapiens, UniProt Q8TEK3); enzyme activity, inhibitor): 1.77 µM

COc1ccccc1-c1ccncc1C(=O)Nc1nnc(OCc2ccc(Cl)cc2)s1
IC50 (DNA polymerase theta, helicase domain (POLQ, Homo sapiens, UniProt O75417); helicase ATPase activity, inhibitor, ADP-Glo; 60 min, with: ssDNA, 100 µM ATP): 0.006 µM

CN(CC(=O)c1ccc2[nH]c(=O)[nH]c2c1)Cc1ccco1
IC50 (Single-stranded DNA cytosine deaminase (AICDA, Homo sapiens, UniProt Q9GZX7); deaminase activity, inhibitor, alkaline cleavage; 293T lysate, His-tagged AID; pH 7.2, 37 °C): 390 µM

N#Cc1cnc(Nc2nc3ccccc3o2)nc1-c1ccc(Cl)c(Cl)c1
IC50 (Grm5; calcium signal, antagonist): > 10 µM

COc1cc2nccc(Oc3ccc(NC(=S)NC(C)C)c(Cl)c3)c2cc1C(N)=O
IC50 (FGFR1): 0.646 µM
